{"data": "Measurements of several laboratories", "note": "Compare with care: the assays were run in different laboratories. “And” joins repeats or separate records; there may be more than shown. ± gives the spread as reported."}
{"Structure (SMILES)": "C/C=C1\\NC(=O)[C@H]2CSSCC/C=C/[C@H](CC(=O)N[C@H](C(C)C)C(=O)N2)OC(=O)[C@H](C(C)C)NC1=O", "test system": "human, plasma", "setting": "intravenous", "clearance": "86.7 mL/min"}
{"Structure (SMILES)": "CNCc1ccc(-c2[nH]c3cc(F)cc4c3c2CCNC4=O)cc1", "test system": "human cancer patients, plasma", "setting": "intravenous, 4 mg/m2, day 4, with: temozolomide 100", "clearance": "450 mL/min"}
{"Structure (SMILES)": "CC(=O)O[C@H]1C(=O)[C@@]2(C)[C@H]([C@H](OC(=O)c3ccccc3)[C@]3(O)C[C@H](OC(=O)[C@H](O)[C@@H](NC(=O)c4ccccc4)c4ccccc4)C(C)=C1C3(C)C)[C@]1(OC(C)=O)CO[C@@H]1C[C@@H]2O", "test": "noncompartmental analysis", "test system": "human, plasma", "setting": "intravenous, 80 mg/m^2, day 8, DL2 geometric mean, with: onalespib 150 mg/m^2", "clearance": "14.4 ± 1.36 L/h/m²"}
{"Structure (SMILES)": "Cc1ccc(NC(=O)c2ccc(CN3CCNCC3)cc2)cc1Nc1nccc(-c2cccnc2)n1", "test system": "human patients", "setting": "oral, 400 mg/day of imatinib, day 10 of cycle 1", "clearance": "380 mL/min"}
{"Structure (SMILES)": "O=C(/C=C/c1cccc(S(=O)(=O)Nc2ccccc2)c1)NO", "test system": "human normal liver function, plasma", "setting": "intravenous, 400 mg/m^2, 30 min infusion, cycle 1 day -7", "clearance": "661 mL/min/m²"}
{"Structure (SMILES)": "CS(=O)(=O)CCNCc1ccc(-c2ccc3ncnc(Nc4ccc(OCc5cccc(F)c5)c(Cl)c4)c3c2)o1", "test system": "healthy human, plasma", "setting": "oral, 100 mg, single dose", "clearance": "1060 mL/min"}
{"Structure (SMILES)": "NS(=O)(=O)OC[C@@H]1C[C@@H](n2ccc3c(N[C@H]4CCc5ccccc54)ncnc32)C[C@@H]1O", "test system": "human", "setting": "intravenous, 15 mg/m^2 single dose, day 8, with: itraconazole", "clearance": "442 mL/min"}
{"Structure (SMILES)": "CN[C@H]1C(=O)N[C@@H]2Cc3ccc(cc3)Oc3cc4cc(c3O[C@@H]3O[C@H](C(=O)O)[C@@H](O)[C@H](O)[C@H]3NC(=O)CCCCCCCCC(C)C)Oc3ccc(cc3Cl)[C@@H](O)[C@@H]3NC(=O)[C@H](NC(=O)[C@@H]4NC(=O)[C@@H](NC2=O)c2cc(cc(O)c2Cl)Oc2cc1ccc2O)c1ccc(O)c(c1)-c1c(O[C@H]2O[C@H](CO)[C@@H](O)[C@H](O)[C@@H]2O)cc(O)cc1[C@@H](C(=O)NCCCN(C)C)NC3=O", "test": "population PK model", "test system": "human patients", "setting": "intravenous, typical covariate values", "clearance": "0.833 mL/min"}
{"Structure (SMILES)": "Cc1cc(F)ccc1-c1nc(NC(CO)CO)nc2c1ccc(=O)n2-c1c(F)cccc1F", "test": "population PK model", "test system": "human, severe trauma, at risk for ARDS, plasma", "setting": "intravenous infusion, typical patient", "clearance": "600 mL/min and 598 mL/min"}
{"note": "A few entries again:"}
{"Structure (SMILES)": "C/C=C1\\NC(=O)[C@H]2CSSCC/C=C/[C@H](CC(=O)N[C@H](C(C)C)C(=O)N2)OC(=O)[C@H](C(C)C)NC1=O", "test system": "human, plasma", "setting": "intravenous", "clearance": "86.7 mL/min"}
